Results collected from several papers.
Compare with care: the assays were run in different laboratories.
Cell line: MCF7

Compound | read-out | method | time | IC50 [µM]
Cc1nn(-c2ccccc2)c(O)c1C(c1cccc([N+](=O)[O-])c1)c1c(C)nn(-c2ccccc2)c1O | cell growth or viability | MTT | 48 h | 32.5
C/C1=C\CC[C@@]2(C)O[C@H]2[C@H]2OC(=O)C(C)[C@@H]2CC1 (some centres unmarked) | cell growth or viability | resazurin |  | > 500
C=CC[P](c1ccccc1)(c1ccccc1)[Pt]([S]c1ccccn1)([S]c1ccccn1)[P](CC=C)(c1ccccc1)c1ccccc1 | cell growth or viability | MTT |  | 4.8
CCCCc1ccc(S(=O)(=O)N2CC2C(=O)OC)cc1 (centres unmarked) | cell growth or viability | MTT | 48 h | 36
CC[C@H](C)[C@H](NC(=O)[C@H](CCCCN)NC(=O)[C@H](CCCCN)NC(=O)[C@H](C)NC(=O)[C@H](CC(C)C)NC(=O)[C@H](C)NC(=O)[C@H](C)NC(=O)[C@H](CC(C)C)NC(=O)[C@H](C)NC(=O)[C@H](CCCCN)NC(=O)[C@H](CC(C)C)NC(=O)[C@H](CC(N)=O)NC(=O)[C@@H](NC(=O)[C@H](CCCCN)NC(=O)CNC(=O)[C@H](CC(C)C)NC(=O)[C@H](CC(C)C)NC(=O)[C@H](Cc1ccc(O)cc1)NC(=O)CNC(=O)[C@H](C)NC(=O)[C@H](CO)NC(=O)[C@H](CC(N)=O)NC(=O)[C@H](CC(C)C)NC(=O)[C@@H](NC(=O)[C@H](Cc1c[nH]c2ccccc12)NC(=O)CN)[C@@H](C)O)[C@@H](C)CC)C(=O)N[C@@H](CC(C)C)C(N)=O | cytotoxicity |  |  | 1.4
Cc1cc(C)c(S(=O)(=O)N2CC2C(N)=O)c(C)c1 (centres unmarked) | cell growth or viability | MTT | 48 h | 189
CC(C)OC(=O)C(n1cccn1)n1cccn1.F[P-](F)(F)(F)(F)F.[Cu+].c1ccc(P(c2ccccc2)c2ccccc2)cc1 | cell growth or viability | MTT | 72 h | 6.7
C[C@H]1O[C@@H](O[C@H]2CC[C@@]3(C)[C@H](CC[C@@H]4[C@@H]3CC[C@]3(C)[C@@H](C5=CC(=O)OC5)[C@@H](O)C[C@]43O)C2)C[C@H](O)[C@@H]1O[C@@H]1O[C@H](CO)[C@@H](O)[C@H](O)[C@H]1O | cell growth or viability | MTT | 48 h | 0.26
C=C(CO)[C@H]1Cc2c(ccc3c2O[C@@H]2COc4cc(OC)c(OC)cc4[C@]2(O)C3=O)O1 | cell growth or viability | MTT | 72 h | 33.1
C[C@H]1O[C@@H](O[C@H]2CC[C@@]3(C)[C@H](CC[C@@H]4[C@@H]3C[C@@H](O)[C@]3(C)[C@@H](C5=CC(=O)OC5)CC[C@]43O)C2)C[C@H](O)[C@@H]1O[C@@H]1O[C@H](CO)[C@@H](O)[C@H](O)[C@H]1O | cell growth or viability | MTT | 48 h | 0.38
CC(C)C[C@H](NC(=O)[C@H](CC(C)C)NC(=O)[C@H](CC(=O)O)NC(=O)[C@H](CCCCN)NC(=O)[C@H](Cc1ccccc1)NC(=O)CN)C(=O)N[C@@H](CCCCN)C(=O)N[C@H]1CSCc2ccc(cc2)CSC[C@@H](C(=O)N[C@@H](CC(C)C)C(=O)N[C@H](C(=O)N[C@@H](CCCCN)C(=O)N[C@H](C(=O)N[C@H](C(=O)N[C@@H](CC(C)C)C(=O)N[C@@H](Cc2ccccc2)C(N)=O)C(C)C)[C@@H](C)O)C(C)C)NC(=O)[C@H](CCCCN)NC(=O)[C@H](C)NC(=O)[C@H](C)NC1=O | cell growth or viability | CCK-8 |  | 9.27
O=C1CC2(C1)C(=O)[O][Pt]1([Cl])([O]C(=O)C(F)(F)F)([NH][C@@H]3CCCC[C@H]3[NH]1)[O]C2=O | cell growth or viability | MTT |  | 22.2
c1ccc(-c2cc(-c3ccc4ccccc4n3)c3c4nncn4c4nncn4c3n2)cc1 | cell growth or viability | MTT | 48 h | 7.8
Cc1nn(-c2ccccc2)c(O)c1C(c1ccc(F)cc1)c1c(C)nn(-c2ccccc2)c1O | cell growth or viability | MTT | 48 h | 28.5
[Cl][Au].[Se]=c1n(C2CCCCC2)ccn1C1CCCCC1 | cell growth or viability | MTT | 72 h | 3.2
COc1ccc(C(c2c(C)nn(-c3ccccc3)c2O)c2c(C)nn(-c3ccccc3)c2O)cc1OC | cell growth or viability | MTT | 48 h | 8.05
C[C@H]1O[C@@H](O[C@H]2CC[C@@]3(C)[C@H](CC[C@@H]4[C@@H]3CC[C@]3(C)[C@@H](C5=CC(=O)OC5)[C@@H](O)C[C@]43O)C2)C[C@H](O)[C@@H]1O | cell growth or viability | MTT | 48 h | 0.49
CC[C@H](C)[C@H](NC(=O)[C@H](CCCCN)NC(=O)[C@H](CCCCN)NC(=O)[C@H](C)NC(=O)[C@@H](NC(=O)[C@H](C)NC(=O)[C@H](CC(C)C)NC(=O)[C@H](CC(C)C)NC(=O)[C@H](C)NC(=O)[C@H](CCCCN)NC(=O)[C@H](CC(C)C)NC(=O)[C@H](CC(N)=O)NC(=O)[C@@H](N)CC(C)C)C(C)C)C(=O)N[C@@H](CC(C)C)C(N)=O | cell growth or viability | MTT |  | 25.3
C=CC[P](c1ccccc1)(c1ccccc1)[Pt]([S]c1ccc(C(F)(F)F)cn1)([S]c1ccc(C(F)(F)F)cn1)[P](CC=C)(c1ccccc1)c1ccccc1 | cell growth or viability | MTT |  | 19.7
C#CCN[C@@H]1C=C[C@]2(O[C@H]([C@@H](CC)C(=O)[C@@H](C)[C@@H](O)[C@H](C)[C@@H]3O[C@@H]([C@@H](CC)C(=O)O)CC[C@@H]3C)[C@@H](C)C[C@H]2C)O[C@@]12CC[C@@](C)([C@H]1CC[C@](O)(CC)[C@H](C)O1)O2 | cell growth or viability | resazurin | 72 h | 0.41
Cc1cc(C)c(N2CCN(c3c(C)cc(C)cc3C)C2=[Se])c(C)c1.[Cl][Ag] | cell growth or viability | MTT | 72 h | 2.6
CC(N)C(O)CCCCCCCCCCCCCCC(=O)CCCCCCCC(O)C(C)N (centres unmarked) | cell growth or viability | resazurin | 96 h | 34.9
CC[C@H](C)[C@@H]([C@@H](CC(=O)N1CCC[C@H]1[C@H](OC)[C@@H](C)C(=O)N[C@H](C)[C@@H](O)c1ccccc1)OC)N(C)C(=O)[C@@H](NC(=O)[C@H](C(C)C)N(C)C(=O)OCc1ccc(NC(=O)[C@H](CCCNC(N)=O)NC(=O)[C@@H](NC(=O)CCCc2cn(CC(=O)N[C@@H](CCCNC(=N)N)C(=O)N[C@@H](CCCNC(=N)N)C(=O)N[C@@H](Cc3ccc4ccccc4c3)C(=O)N[C@H]3CSSC[C@@H](C(=O)N[C@@H](CCCNC(=N)N)C(N)=O)NC(=O)[C@H](CCCNC(N)=O)NC(=O)[C@H](CCCNC(=N)N)NC(=O)[C@H](Cc4ccc(O)cc4)NC(=O)[C@@H]4CCCN4C(=O)[C@@H](CCCCN)NC(=O)[C@H](CCCCN)NC(=O)[C@H](CCCNC(N)=O)NC(=O)[C@H](Cc4ccc(O)cc4)NC3=O)nn2)C(C)C)cc1)C(C)C | cell growth or viability | CCK-8 | 48 h | 4.05
Cc1ccc(C(c2c(C)nn(-c3ccccc3)c2O)c2c(C)nn(-c3ccccc3)c2O)cc1 | cell growth or viability | MTT | 48 h | 30.4
CC(C)C[C@H](NC(=O)[C@H](C)NC(=O)[C@H](CCCCN)NC(=O)[C@H](C)NC(=O)[C@H](C)NC(=O)[C@@H]1CSCc2ccc(cc2)CSC[C@H](NC(=O)[C@H](CCCCN)NC(=O)[C@H](Cc2ccccc2)NC(=O)CN)C(=O)N[C@@H](CC(C)C)C(=O)N[C@@H](CC(C)C)C(=O)N[C@@H](CCCCN)C(=O)N1)C(=O)N[C@H](C(=O)N[C@@H](CCCCN)C(=O)N[C@H](C(=O)N[C@H](C(=O)N[C@@H](CC(C)C)C(=O)N[C@@H](Cc1ccccc1)C(N)=O)C(C)C)[C@@H](C)O)C(C)C | cell growth or viability | CCK-8 |  | 10.3
[N-]=[N+]=NCCCN1C(=O)c2cccc3cccc(c23)C1=O | cell growth or viability | MTT | 24 h | > 100
C[C@@H](N)[C@H](O)CCCCCCCC(=O)CCCCCCCCCCCCCC[C@@H](O[C@@H]1O[C@H](CO)[C@H](O)[C@H](O)[C@H]1O)[C@H](N)CO | cell growth or viability | resazurin | 96 h | 6.16
CC[C@H](C)[C@H](NC(=O)[C@H](CCCCN)NC(=O)[C@@H](NC(=O)[C@H](CCC(N)=O)NC(=O)[C@@H](N)CCCNC(=N)N)[C@@H](C)CC)C(=O)N[C@@H](Cc1c[nH]c2ccccc12)C(=O)N[C@@H](Cc1ccccc1)C(=O)N[C@@H](CCC(N)=O)C(=O)N[C@@H](CC(N)=O)C(=O)N[C@@H](CCCNC(=N)N)C(=O)N[C@@H](CCCNC(=N)N)C(=O)N[C@@H](CCSC)C(=O)N[C@@H](CCCCN)C(=O)N[C@@H](Cc1c[nH]c2ccccc12)C(=O)N[C@@H](CCCCN)C(=O)N[C@@H](CCCCN)C(N)=O | cytotoxicity |  |  | 33.5
O=C(Nc1nc2c(ncn2C2OC(COP(=O)(O)O)C(O)C2O)c(=O)[nH]1)c1ccccc1 (centres unmarked) | cell growth or viability |  |  | 7.68

Repeated from above:
Compound | read-out | method | time | IC50 [µM]
CC[C@H](C)[C@H](NC(=O)[C@H](CCCCN)NC(=O)[C@H](CCCCN)NC(=O)[C@H](C)NC(=O)[C@@H](NC(=O)[C@H](C)NC(=O)[C@H](CC(C)C)NC(=O)[C@H](CC(C)C)NC(=O)[C@H](C)NC(=O)[C@H](CCCCN)NC(=O)[C@H](CC(C)C)NC(=O)[C@H](CC(N)=O)NC(=O)[C@@H](N)CC(C)C)C(C)C)C(=O)N[C@@H](CC(C)C)C(N)=O | cell growth or viability | MTT |  | 25.3
C=CC[P](c1ccccc1)(c1ccccc1)[Pt]([S]c1ccc(C(F)(F)F)cn1)([S]c1ccc(C(F)(F)F)cn1)[P](CC=C)(c1ccccc1)c1ccccc1 | cell growth or viability | MTT |  | 19.7
